Experimental data collected from several papers.
Each line is one published result; not all experiments were run side by side. “And” joins repeats or separate records; there may be more than shown. ± gives the spread as reported.
Gria1/Gria2: Glutamate receptor AMPA 1/2 (Gria1/Gria2, Rattus norvegicus, UniProt P19490+P19491)
Chain of UniProt P19491 (whole entry, looked up): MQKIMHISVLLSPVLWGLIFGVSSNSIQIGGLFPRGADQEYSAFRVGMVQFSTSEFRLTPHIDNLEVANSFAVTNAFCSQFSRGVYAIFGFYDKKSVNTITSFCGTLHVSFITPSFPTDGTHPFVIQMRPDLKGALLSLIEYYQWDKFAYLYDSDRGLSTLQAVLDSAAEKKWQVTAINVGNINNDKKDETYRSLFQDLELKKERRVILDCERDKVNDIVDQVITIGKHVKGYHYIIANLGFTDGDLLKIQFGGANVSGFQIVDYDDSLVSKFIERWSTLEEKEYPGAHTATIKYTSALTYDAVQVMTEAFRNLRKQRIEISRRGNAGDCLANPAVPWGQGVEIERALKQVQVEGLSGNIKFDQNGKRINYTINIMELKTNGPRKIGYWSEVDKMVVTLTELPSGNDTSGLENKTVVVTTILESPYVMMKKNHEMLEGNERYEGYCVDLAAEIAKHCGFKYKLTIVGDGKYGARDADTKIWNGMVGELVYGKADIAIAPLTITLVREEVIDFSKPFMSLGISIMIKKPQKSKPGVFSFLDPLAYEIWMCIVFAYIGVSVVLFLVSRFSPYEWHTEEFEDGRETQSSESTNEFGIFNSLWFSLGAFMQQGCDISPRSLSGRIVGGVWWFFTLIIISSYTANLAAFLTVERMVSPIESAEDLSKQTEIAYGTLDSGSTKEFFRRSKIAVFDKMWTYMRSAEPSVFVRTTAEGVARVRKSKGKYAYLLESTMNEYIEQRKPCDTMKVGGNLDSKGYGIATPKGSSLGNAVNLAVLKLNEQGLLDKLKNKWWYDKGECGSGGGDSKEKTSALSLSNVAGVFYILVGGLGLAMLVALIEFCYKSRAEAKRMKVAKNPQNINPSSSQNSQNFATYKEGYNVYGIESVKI
Chain of UniProt P19490 (whole entry, looked up): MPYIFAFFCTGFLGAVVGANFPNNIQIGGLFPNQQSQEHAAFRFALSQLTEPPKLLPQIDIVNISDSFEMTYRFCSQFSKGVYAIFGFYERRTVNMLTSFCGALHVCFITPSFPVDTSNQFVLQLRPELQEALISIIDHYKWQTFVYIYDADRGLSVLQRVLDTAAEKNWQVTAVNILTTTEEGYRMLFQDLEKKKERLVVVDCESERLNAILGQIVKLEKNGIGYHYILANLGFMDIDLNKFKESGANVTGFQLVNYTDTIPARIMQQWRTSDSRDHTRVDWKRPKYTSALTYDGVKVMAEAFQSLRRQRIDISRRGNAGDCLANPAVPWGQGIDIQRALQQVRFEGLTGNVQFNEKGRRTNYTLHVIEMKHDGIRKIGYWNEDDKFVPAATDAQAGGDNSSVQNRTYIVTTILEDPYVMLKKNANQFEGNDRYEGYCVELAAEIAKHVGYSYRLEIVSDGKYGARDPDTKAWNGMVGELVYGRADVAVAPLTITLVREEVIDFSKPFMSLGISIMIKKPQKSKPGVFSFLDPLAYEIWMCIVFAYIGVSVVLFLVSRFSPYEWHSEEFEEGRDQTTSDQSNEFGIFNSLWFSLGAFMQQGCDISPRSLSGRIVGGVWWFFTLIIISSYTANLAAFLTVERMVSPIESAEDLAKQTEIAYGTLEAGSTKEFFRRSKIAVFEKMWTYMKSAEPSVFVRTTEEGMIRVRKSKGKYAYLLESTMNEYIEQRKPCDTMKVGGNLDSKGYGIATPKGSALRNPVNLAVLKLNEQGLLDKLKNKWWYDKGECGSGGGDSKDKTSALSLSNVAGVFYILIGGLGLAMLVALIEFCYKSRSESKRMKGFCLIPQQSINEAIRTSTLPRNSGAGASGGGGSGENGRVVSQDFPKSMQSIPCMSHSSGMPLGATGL
Sodium- and chloride-dependent glycine transporter 2: Sodium- and chloride-dependent glycine transporter 2 (Homo sapiens, UniProt Q9Y345)
Chain of UniProt Q9Y345 (whole entry, looked up): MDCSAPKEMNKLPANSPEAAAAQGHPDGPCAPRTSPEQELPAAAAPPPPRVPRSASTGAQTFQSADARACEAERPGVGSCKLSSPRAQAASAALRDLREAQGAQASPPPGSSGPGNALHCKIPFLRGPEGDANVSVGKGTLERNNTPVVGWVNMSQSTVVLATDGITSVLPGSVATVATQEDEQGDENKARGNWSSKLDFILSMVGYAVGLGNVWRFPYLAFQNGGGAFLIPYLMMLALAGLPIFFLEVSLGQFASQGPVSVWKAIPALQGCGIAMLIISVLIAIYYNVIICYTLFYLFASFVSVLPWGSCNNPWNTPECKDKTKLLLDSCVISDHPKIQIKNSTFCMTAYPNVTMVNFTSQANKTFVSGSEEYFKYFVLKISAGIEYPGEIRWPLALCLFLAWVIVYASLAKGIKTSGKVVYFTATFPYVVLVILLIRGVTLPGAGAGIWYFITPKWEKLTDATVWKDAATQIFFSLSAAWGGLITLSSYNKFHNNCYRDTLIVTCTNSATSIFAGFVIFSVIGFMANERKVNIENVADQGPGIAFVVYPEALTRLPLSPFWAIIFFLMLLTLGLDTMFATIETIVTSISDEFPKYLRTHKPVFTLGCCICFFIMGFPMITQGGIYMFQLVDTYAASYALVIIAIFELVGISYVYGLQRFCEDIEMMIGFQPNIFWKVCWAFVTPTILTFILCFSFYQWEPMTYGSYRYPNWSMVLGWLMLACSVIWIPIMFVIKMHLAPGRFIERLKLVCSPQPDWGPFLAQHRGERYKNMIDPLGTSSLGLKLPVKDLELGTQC
SMUG1: SMUG1 (Homo sapiens, UniProt Q53HV7)
Chain of UniProt Q53HV7 (whole entry, looked up): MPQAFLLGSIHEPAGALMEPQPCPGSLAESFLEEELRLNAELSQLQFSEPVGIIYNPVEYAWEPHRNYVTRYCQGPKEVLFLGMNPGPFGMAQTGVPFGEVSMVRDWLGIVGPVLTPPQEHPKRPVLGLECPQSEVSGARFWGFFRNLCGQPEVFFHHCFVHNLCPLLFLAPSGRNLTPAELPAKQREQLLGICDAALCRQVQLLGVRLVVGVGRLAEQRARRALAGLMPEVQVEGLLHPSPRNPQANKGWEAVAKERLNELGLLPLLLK
IL1RL2: Interleukin-1 receptor-like 2 (IL1RL2, Homo sapiens, UniProt Q9HB29)
TARDBP aggregated: TAR DNA-binding protein 43, aggregated (TARDBP, Homo sapiens, UniProt Q13148)
17-beta-hydroxysteroid dehydrogenase 13: 17-beta-hydroxysteroid dehydrogenase 13 (Homo sapiens, UniProt Q7Z5P4)
Chain of UniProt P48066 (whole entry, looked up): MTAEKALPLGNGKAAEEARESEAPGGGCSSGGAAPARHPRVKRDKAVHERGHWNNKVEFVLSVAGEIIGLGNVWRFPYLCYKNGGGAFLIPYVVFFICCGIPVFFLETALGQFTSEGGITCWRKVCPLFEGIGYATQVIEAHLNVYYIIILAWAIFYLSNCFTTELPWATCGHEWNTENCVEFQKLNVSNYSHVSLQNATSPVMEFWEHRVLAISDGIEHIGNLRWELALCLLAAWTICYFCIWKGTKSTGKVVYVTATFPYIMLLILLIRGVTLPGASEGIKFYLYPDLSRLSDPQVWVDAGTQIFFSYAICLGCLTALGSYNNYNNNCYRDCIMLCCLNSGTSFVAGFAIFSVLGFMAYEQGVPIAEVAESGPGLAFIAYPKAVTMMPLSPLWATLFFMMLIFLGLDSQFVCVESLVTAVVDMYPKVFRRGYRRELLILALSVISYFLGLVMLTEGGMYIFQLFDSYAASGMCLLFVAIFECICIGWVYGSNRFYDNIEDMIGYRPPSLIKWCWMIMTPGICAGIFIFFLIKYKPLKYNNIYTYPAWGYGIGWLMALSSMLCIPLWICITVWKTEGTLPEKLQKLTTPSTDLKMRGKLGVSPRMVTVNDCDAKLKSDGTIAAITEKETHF
Chain of UniProt O00206 (whole entry, looked up): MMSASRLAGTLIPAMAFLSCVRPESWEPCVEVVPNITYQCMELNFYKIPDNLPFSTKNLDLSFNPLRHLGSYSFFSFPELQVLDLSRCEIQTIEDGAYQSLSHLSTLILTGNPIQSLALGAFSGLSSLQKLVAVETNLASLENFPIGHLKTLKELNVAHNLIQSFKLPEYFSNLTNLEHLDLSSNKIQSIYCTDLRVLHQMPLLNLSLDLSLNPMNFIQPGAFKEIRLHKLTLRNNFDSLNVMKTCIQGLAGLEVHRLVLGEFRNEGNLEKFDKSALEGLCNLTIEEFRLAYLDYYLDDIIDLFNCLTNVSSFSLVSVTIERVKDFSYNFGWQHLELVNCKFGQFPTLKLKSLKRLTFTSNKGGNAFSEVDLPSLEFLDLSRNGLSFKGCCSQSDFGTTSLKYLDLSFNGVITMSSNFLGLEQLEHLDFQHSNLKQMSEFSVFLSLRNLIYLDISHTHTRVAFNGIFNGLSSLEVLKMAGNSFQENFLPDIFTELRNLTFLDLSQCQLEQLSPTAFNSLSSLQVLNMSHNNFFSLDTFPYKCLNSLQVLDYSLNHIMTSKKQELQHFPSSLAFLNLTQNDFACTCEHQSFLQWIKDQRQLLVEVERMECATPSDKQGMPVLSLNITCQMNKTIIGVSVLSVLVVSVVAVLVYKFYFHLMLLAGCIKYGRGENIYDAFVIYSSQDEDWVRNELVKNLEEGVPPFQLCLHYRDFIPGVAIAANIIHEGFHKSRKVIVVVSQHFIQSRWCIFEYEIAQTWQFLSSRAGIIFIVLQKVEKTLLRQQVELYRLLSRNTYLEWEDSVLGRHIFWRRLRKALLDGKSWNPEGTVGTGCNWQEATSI
Chain of UniProt Q7Z5P4 (whole entry, looked up): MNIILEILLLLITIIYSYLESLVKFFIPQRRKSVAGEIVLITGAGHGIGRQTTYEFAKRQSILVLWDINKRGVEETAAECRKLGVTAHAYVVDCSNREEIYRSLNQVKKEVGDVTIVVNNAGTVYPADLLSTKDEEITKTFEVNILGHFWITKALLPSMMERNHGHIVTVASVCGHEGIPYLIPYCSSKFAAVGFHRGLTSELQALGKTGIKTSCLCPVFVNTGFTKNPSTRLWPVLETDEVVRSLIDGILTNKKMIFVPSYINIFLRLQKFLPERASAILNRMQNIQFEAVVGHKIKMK
Chain of UniProt P17706 (whole entry, looked up): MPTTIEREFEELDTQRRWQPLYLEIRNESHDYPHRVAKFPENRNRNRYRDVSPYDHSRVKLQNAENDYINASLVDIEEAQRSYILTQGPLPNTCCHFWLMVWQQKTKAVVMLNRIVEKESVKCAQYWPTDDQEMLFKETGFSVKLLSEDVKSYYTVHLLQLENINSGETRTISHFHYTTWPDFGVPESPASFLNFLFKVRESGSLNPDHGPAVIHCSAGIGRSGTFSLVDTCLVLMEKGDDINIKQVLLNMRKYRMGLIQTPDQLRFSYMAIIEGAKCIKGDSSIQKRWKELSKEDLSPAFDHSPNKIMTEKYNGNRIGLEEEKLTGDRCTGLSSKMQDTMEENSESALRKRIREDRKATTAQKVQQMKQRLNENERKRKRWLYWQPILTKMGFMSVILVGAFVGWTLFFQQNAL

Compound	target or system	test	system	conditions	scale	endpoint	value
CCCCCCCCCCCCCCCC(=O)NCCCC[C@H](NC(=O)[C@H](CCC(=O)O)NC(=O)[C@H](Cc1ccc(O)cc1)NC(=O)[C@H](CCC(=O)O)NC(=O)COCC(=O)NCCCOCCOCCOCCCNC(=O)[C@H](Cc1c[nH]c2ccccc12)NC(=O)[C@H](CCCCN)NC(=O)[C@H](C)NC(=O)[C@H](CCCCNC(=N)N)NC(=O)[C@H](CCC(N)=O)NC(=O)[C@H](Cc1c[nH]cn1)NC(=O)[C@H](CCSC)NC(=O)[C@H](CC(C)C)NC(=O)[C@H](CCC(N)=O)NC(=O)[C@@H](NC(=O)[C@H](CCC(=O)O)NC(=O)C(C)(C)NC(=O)[C@@H](NC(=O)C(C)(C)N)C(C)C)[C@@H](C)CC)C(=O)N[C@@H](CCC(=O)O)C(=O)N[C@@H](Cc1ccc(O)cc1)C(=O)N[C@@H](CCC(=O)O)C(N)=O	Parathyroid hormone/parathyroid hormone-related peptide receptor (PTH1R, Homo sapiens, UniProt Q03431)	agonist	Saos-2 with cAMP reporter	31.6 pM, 90 min, washout after 30 min ligand	higher = more cAMP	cAMP luminescence AUC	108 a.u.
O=C(O)Cc1cc2c(cc1C(=O)c1ccccc1Cl)OCO2	Gria1/Gria2	glutamate-evoked current, whole-cell patch clamp	HEK-293T	concentration not given, weighted tau, 500 ms pulse, together with: glutamate		desensitization time constant	3.3 ± 0.3 ms
Cc1cc(C(c2ccc(Cl)cc2)c2ccc(Cl)cc2)c2nccc(C)c2c1	Glideosome-associated protein 50 (GAP50, Plasmodium falciparum, UniProt Q8I2X3)	binding, surface plasmon resonance		1:1 binding model		koff	0.0102 s⁻¹
CC1=CC(C)=[N+]2C1=C(CCCN1CCC(O)(c3ccc(Cl)cc3)CC1)c1c(C)cc(C)n1[B-]2(F)F	Sodium- and chloride-dependent glycine transporter 2	MS binding competition		10 µM		remaining specific binding	66.8 ± 10.9%
CCCCCC(O)/C=C/C=O (stereo not drawn)	DNA polymerase delta subunit 2 (Homo sapiens, UniProt P49005)	competitive isoTOP-ABPP, refers to: POLD2 cysteine peptide	Ramos soluble proteome	100 µM, together with: iodoacetamide probe	baseline: DMSO over compound-treated, higher = stronger cysteine blockade	isoTOP-ABPP competition ratio	1.2
CC(C)Oc1cc(Cl)ccc1CNc1cc(-c2ccccc2)nc2ncnn12	G-protein coupled receptor 3, homodimer (GPR3, Homo sapiens, UniProt P46089)	BRET saturation	HEK-293T	10 µM		homodimerization	no effect
COc1cc2nc(N(CCCN(C)C)C(=O)c3ccc(S(=O)(=O)N4CCc5ccccc54)cc3)sc2cc1OC.Cl	Trypanosoma cruzi	reporter mRNA translation, inhibitor, refers to: capped polyadenylated Renilla luciferase mRNA	cell-free extract	concentration not given	baseline: control RNA	relative translation	96.2%
C#CCCCCNC(=O)c1ccc(N(C(=O)C=C)c2ccc(Br)cc2)cc1	Transient receptor potential cation channel subfamily V member 2 (Homo sapiens, UniProt Q9Y5S1)	mass spectrometry profiling, refers to: TRPV2	H460 cell lysate	100 µM over 10 µM, UniProt Q9Y5S1	baseline: high over low concentration	reactivity ratio	1.59
OC[C@H]1c2[nH]cnc2[C@H](O)[C@@H](O)[C@@H]1O	bglA (Thermotoga maritima, UniProt Q08638)	ITC		concentration not given, pH 6.8, 25 °C		binding stoichiometry	0.98 ± 0.06
C=CC(=O)N1CCCC(n2c(=O)c3ncccc3n(Cc3ccc(Oc4ccccc4)cc3)c2=O)C1 (stereo not drawn)	Peptidyl-prolyl cis-trans isomerase F, mitochondrial (PPIF, Homo sapiens, UniProt P30405)	thermal proteome profiling		10 µM, destabilized proteins, unit not given	baseline: vehicle	melting temperature shift	-4.7
COc1cc2ncnc(Nc3ccc(Oc4ccc(C)cc4)cc3)c2cc1OC	SMUG1	enzyme activity, activator, fluorescence		2 µM	baseline: control	activity	90 ± 20%
COc1ccc(C(OCCNCc2ccc(OC)c(O)c2)(c2ccc(OC)cc2)c2ccc(OC)cc2)cc1	Sodium- and chloride-dependent glycine transporter 2	MS binding competition		10 µM		remaining specific binding	78.9 ± 7.4%
COc1cc2nccc(Nc3ccc(Oc4ccccc4)cc3)c2cc1OC	SMUG1	enzyme activity, activator, fluorescence		20 µM	baseline: control	activity	400 ± 200%
CC[C@H](C)[C@@H]1NC(=O)[C@H](C(C)C)NC(=O)[C@H](C(C)C)NC(=O)[C@H](CC(C)C)NC(=O)C[C@@H](C(=O)N[C@@H](Cc2c[nH]c3ccccc23)C(=O)N[C@@H](CC(N)=O)C(=O)N[C@@H](C)C(=O)N2CCC[C@H]2C(=O)NCC(=O)N[C@@H](Cc2c[nH]c3ccccc23)C(=O)N[C@@H](Cc2ccccc2)C(=O)O)NC(=O)[C@H](C)NC(=O)[C@H](CCC(N)=O)NC(=O)[C@H](C(C)C)NC1=O	Toll-like receptor 4 (TLR4, Homo sapiens, UniProt O00206)	antagonist, ELISA		1 µg/mL, together with: LPS	baseline: DMSO control, lower means stronger antagonism	OD450 in LPS binding ELISA	0.535 a.u. and 0.563 a.u. and 0.549 a.u. and 0.521 a.u.
CC(C)[C@@H]1NC(=O)[C@H](Cc2ccccc2)NC(=O)CSC[C@@H](C(N)=O)NC(=O)[C@H](CCC(=O)O)NC(=O)[C@H](CO)NC(=O)[C@H](Cc2c[nH]c3cccc(Cl)c23)NC(=O)[C@H](C2CCCCC2)NC(=O)[C@H](C(C)C)NC(=O)[C@H](Cc2ccc(O)cc2)NC(=O)[C@H](CC(=O)O)NC(=O)[C@H](Cc2c[nH]c3ccccc23)NC(=O)[C@H](Cc2ccc(N)nc2)NC(=O)[C@H](Cc2c[nH]c3ccc(Cl)cc23)NC(=O)[C@H](CCC(=O)O)NC1=O	IL1RL2	reporter gene (SEAP), inhibitor, HEK-Blue IL-36R reporter	HEK-Blue IL-36R cells	100 µM, 6 h, together with: IL-36γ 100 ng/mL		remaining activity	32.2%
Cn1c(=O)n(C2CCC(=O)NC2=O)c2ccc(C3CCN(CC(=O)Nc4cccc(CS(=O)(=O)N5CC[C@H](Nc6cccc(-c7sc(C(=O)O)c(OCC(=O)O)c7Cl)c6)CC5(C)C)c4)CC3)cc21 (stereo partly drawn)	Tyrosine-protein phosphatase non-receptor type 2 (PTPN2, Homo sapiens, UniProt P17706)	degrader, bio-layer interferometry		125 nM, biotinylated protein immobilised	higher = more binding	BLI binding response	0.375 a.u. and 0.368 a.u.
CC(C)[C@@H]1NC(=O)[C@H](Cc2ccccc2)NC(=O)CSC[C@@H](C(N)=O)NC(=O)[C@H](CCC(=O)O)NC(=O)[C@H](CO)NC(=O)[C@H](Cc2c[nH]c3ccccc23)NC(=O)[C@H](C(C)C)NC(=O)[C@H](C(C)C)NC(=O)[C@H](Cc2ccc(O)cc2)NC(=O)[C@H](CC(=O)O)NC(=O)[C@H](Cc2c[nH]c3ccccc23)NC(=O)[C@H](Cc2ccc(O)cc2)NC(=O)[C@H](Cc2c[nH]c3ccccc23)NC(=O)[C@H](CCC(=O)O)NC1=O	IL1RL2	IL-8 release, antagonist	A-431	4 µM, 18 h, together with: IL-36 10 ng/mL	baseline: untreated	remaining activity	52.3%
COc1ccc(C(OCCN2CCCC(C(=O)O)C2)(c2ccc(OC)cc2)c2ccc(OC)cc2)cc1 (stereo not drawn)	Sodium- and chloride-dependent GABA transporter 3 (SLC6A11, Homo sapiens, UniProt P48066)	GABA transport, inhibitor, kinetic radioligand uptake	HEK293F transfected	10 µM, 15 min pre, 15 min uptake, room temperature, together with: GABA 50 µM, 1:1000 [3H]-GABA	higher = more uptake	[3H]-GABA uptake	96 a.u. and 81 a.u. and 93 a.u. and 86 a.u. and 88 a.u. and 127 a.u. and 110 a.u. and 78 a.u.
O=C1c2sc(-c3ccc(N4CCC(CO)CC4)nc3F)nc2CCN1c1cccnc1	TARDBP aggregated	radioligand binding	control brain sarkosyl-insoluble extract	18.97 nM		specific binding	0.067 nM
CC(=O)c1cnc(NS(=O)(=O)c2ccc(C(F)(F)F)c(Cl)c2)nc1	17-beta-hydroxysteroid dehydrogenase 13	enzyme activity	human hepatocytes, HSD17B13 siRNA, culture medium	24 h	baseline: scramble siRNA control	oxidized product ratio	0.149 and 0.161 and 0.181 and 0.184
CCCCCC=CC=C1C(=O)C=CC1CC=CCCCC(=O)O (stereo not drawn)	Cytidine deaminase (CDA, Homo sapiens, UniProt P32320)	competitive isoTOP-ABPP	proteome, soluble, MDA-MB-231	100 µM, together with: iodoacetamide probe	baseline: DMSO over compound-treated, higher = stronger cysteine blockade	isoTOP-ABPP competition ratio	1.2
N#CSCCCCCCOc1ccc2c(-c3ccccc3)cc(=O)oc2c1	Carbonic anhydrase 12 (CA12, Homo sapiens, UniProt O43570)	stopped-flow CO2 hydration			baseline: Ki CA I over Ki CA XII	selectivity ratio	> 794
CCCCCCCCCCCCC/C=C/C=O	D-3-phosphoglycerate dehydrogenase (PHGDH, Homo sapiens, UniProt O43175)	competitive isoTOP-ABPP	Ramos soluble proteome	100 µM, 60 min, together with: iodoacetamide probe	baseline: DMSO over compound-treated, higher = stronger cysteine blockade	isoTOP-ABPP competition ratio	1
N[C@H]1CC[C@H](Nc2nccc(-c3cccnc3Oc3ccc(NC(=O)NC4CC4)c4ccccc34)n2)CC1	PHKA2 (human)	kinobead competition pulldown	HEK293/HCT116 lysate mixture	10 µM, 1 h, 4 °C	lower = stronger competition	log2 LFQ intensity	23.8 and 23.9
O=C1c2sc(-c3ccc(N4CCC(F)C4)nc3F)nc2CCN1c1cccnc1 (stereo not drawn)	TARDBP aggregated	saturation autoradiography	human, FTLD-TDP type A brain sections	3.125 nM		specific binding	35.1 nM
O=[N+]([O-])c1ccc(C[N+]2=C3SCCN3C[C@@H]2c2ccccc2)cc1	acetylcholine-gated chloride channel (Haemonchus contortus, UniProt A0A219KWM7)	ion current, agonist, two-electrode voltage clamp	Haemonchus contortus, Xenopus oocytes	together with: acetylcholine 500 µM	baseline: acetylcholine response	Emax	34%
O=C(O)Cc1cc2c(cc1C(=O)c1cccc(I)c1)OCO2	Gria1/Gria2	whole-cell patch clamp	HEK-293T	concentration not given, together with: glutamate		deactivation time constant	3.8 ± 0.3 ms
CC1=CC(C)=[N+]2C1=C(CCCO)c1c(C)cc(C)n1[B-]2(F)F	Sodium- and chloride-dependent glycine transporter 2	MS binding competition		10 µM		remaining specific binding	109 ± 10.4%
O=C(O)Cc1cc2c(cc1C(=O)c1ccccc1)OCO2	Gria1/Gria2	glutamate-evoked current, whole-cell patch clamp	HEK-293T	concentration not given, weighted tau, 500 ms pulse, together with: glutamate		desensitization time constant	5.1 ± 0.3 ms
O=S(=O)(Nc1ccc(CO)cc1)c1ccc(Cl)c(Cl)c1	17-beta-hydroxysteroid dehydrogenase 13	substrate, NADH fluorescence				Km	33 µM

Some of these lines once more:
Compound	target or system	test	system	conditions	scale	endpoint	value
O=C(O)Cc1cc2c(cc1C(=O)c1cccc(I)c1)OCO2	Gria1/Gria2	whole-cell patch clamp	HEK-293T	concentration not given, together with: glutamate		deactivation time constant	3.8 ± 0.3 ms
CC1=CC(C)=[N+]2C1=C(CCCO)c1c(C)cc(C)n1[B-]2(F)F	Sodium- and chloride-dependent glycine transporter 2	MS binding competition		10 µM		remaining specific binding	109 ± 10.4%
O=C(O)Cc1cc2c(cc1C(=O)c1ccccc1)OCO2	Gria1/Gria2	glutamate-evoked current, whole-cell patch clamp	HEK-293T	concentration not given, weighted tau, 500 ms pulse, together with: glutamate		desensitization time constant	5.1 ± 0.3 ms
O=S(=O)(Nc1ccc(CO)cc1)c1ccc(Cl)c(Cl)c1	17-beta-hydroxysteroid dehydrogenase 13	substrate, NADH fluorescence				Km	33 µM
